# Published values gathered from unrelated publications.
# Protocols differ between the studies behind these lines. Values joined by “and” are separate records of one study, mostly repeats; a detail may differ. Numbers after ± are the reported error.
Molecule,target,assay,test system,setting,IC50
CN/C(=N\[N+](=O)[O-])NCc1cnc(Cl)s1,mAb-19F2 (BALB/c mouse monoclonal antibody),"antibody binding, indirect competitive ELISA",,,> 1 µg/mL
CC(=O)C(=O)O,HDAC from MCF7 cells,inhibitor,,,69000 ± 12000 nM
O=C(NC(=O)c1c(F)cccc1F)Nc1ccc(Cl)cc1,mAb-19F2 (BALB/c mouse monoclonal antibody),"antibody binding, indirect competitive ELISA",,,> 1 µg/mL
pneumocandin I,"1,3-beta-D-glucan synthase (Candida albicans ATCC 10231)","enzyme activity, inhibitor",membrane preparation,"60 min, pH 7.5, 30 °C, together with: UDP-[14C]-glucose 1 mM",5.67 ± 1.06 µg/mL
O=C(/C=C/c1ccc2ncn(CCO)c(=O)c2c1)NO,histone deacetylase,"enzyme activity, inhibitor",HeLa nuclear extract,,974 ± 31 nM
pneumocandin A0,"1,3-beta-D-glucan synthase (Candida albicans ATCC 10231)","enzyme activity, inhibitor",membrane preparation,"60 min, pH 7.5, 30 °C, together with: UDP-[14C]-glucose 1 mM",3.68 ± 0.6 µg/mL
O=C(/C=C/c1ccc2c(=O)n(Cc3ccc(Cl)cc3)cnc2c1)NO,histone deacetylase,"enzyme activity, inhibitor",HeLa nuclear extract,,41 to 44 nM
Nc1ncnc2c1ncn2[C@@H]1O[C@H](COP(=O)(O)OP(=O)(O)OP(=O)(O)O)[C@@H](O)[C@H]1O,SUR2A entire Q/N mutant/Kir6.2,"KATP channel current, inhibitor, inside-out patch clamp",HEK293,with Mg2+,64000 ± 4900 nM
CC(C)c1cccc(C(C)C)c1NC(=O)N[C@H](C(=O)Nc1ccc(C(=O)NO)cc1)c1ccccc1,HDAC (HeLa nuclear extract),"enzyme activity, inhibitor",,,47.7 ± 3.3 nM
Cc1c2cnccc2c(C)c2c1c1ccccc1n2CCNCc1ccccc1,NQO2,protection from toxicity,MDA-MB-468,"3 h, together with: CB1954 100 µM plus NRH 100 µM",2300 ± 1900 nM
Nc1nc(N)nc(NC2CC2)n1,mAb-19F2 (BALB/c mouse monoclonal antibody),"antibody binding, indirect competitive ELISA",,,> 1 µg/mL
O=C(/C=C/c1ccc2ncn(Cc3cccc(F)c3)c(=O)c2c1)NO,histone deacetylase,"enzyme activity, inhibitor",HeLa nuclear extract,,588 ± 12 nM
CC(C)C[C@H](NC(=O)[C@@H](NC(=O)N[C@H](C(=O)OC(C)(C)C)C(C)C)C(C)C)C(=O)[C@@]1(C)CO1,rabbit 26S proteasome beta2,trypsin-like activity,,"30 min, 37 °C, together with: Ac-RLR-AMC",> 30000 nM
CCCCn1cnc2cc(/C=C/C(=O)NO)ccc2c1=O,histone deacetylase,"enzyme activity, inhibitor",HeLa nuclear extract,,124 ± 12 nM
pneumocandin H,"1,3-beta-D-glucan synthase (Candida albicans ATCC 10231)","enzyme activity, inhibitor",membrane preparation,"60 min, pH 7.5, 30 °C, together with: UDP-[14C]-glucose 1 mM",9.05 ± 1.53 µg/mL
O=c1[nH]c(=O)c2[nH]c(=O)[nH]c2[nH]1,human α-synuclein,"peroxynitrite-induced nitration, inhibitor, ELISA",,together with: α-synuclein 1 µM,63000 nM
O=C(NO)c1ccc(NC(=O)[C@@H](NC(=O)c2ccccc2)c2ccccc2)cc1,HDAC (HeLa nuclear extract),"enzyme activity, inhibitor",,,28.7 ± 2.2 nM
N#Cc1c(-c2ccc(F)cc2)c(-c2ccc(F)cc2)nn(Cc2nn[nH]n2)c1=O,tubulin (bovine),"microtubule assembly, inhibitor",,MAP-dependent,1900 ± 110 nM
O=C(NO)c1ccc(NC(=O)[C@@H](NS(=O)(=O)c2cccc3ccccc23)c2ccccc2)cc1,HDAC (HeLa nuclear extract),"enzyme activity, inhibitor",,,15.6 ± 1.1 nM
CC(c1ccc(C(F)(F)F)nc1)S(C)(=O)=NC#N (stereo not shown),mAb-19F2 (BALB/c mouse monoclonal antibody),"antibody binding, indirect competitive ELISA",,,> 1 µg/mL
COc1ccccc1NC(=O)N[C@H](C(=O)Nc1ccc(C(=O)NO)cc1)c1ccccc1,HDAC (HeLa nuclear extract),"enzyme activity, inhibitor",,,7.5 ± 0.2 nM
Cc1cn([C@H]2C[C@H](O)[C@@H](CO)O2)c(=O)[nH]c1=O,nucleoside transporters,gemcitabine flux,"mouse, jejunum in situ perfusion",together with: gemcitabine 5 µM,98500 nM
CN1COCN(Cc2cnc(Cl)s2)/C1=N\[N+](=O)[O-],mAb-19F2 (BALB/c mouse monoclonal antibody),"antibody binding, indirect competitive ELISA",,,> 1 µg/mL
Cc1ccc(NC(=O)CCCCCC(=O)Nc2ccccc2N)cc1,HDAC (HeLa nuclear extract),"enzyme activity, inhibitor",,,1300 nM
CC(COc1ccc(Oc2ccccc2)cc1)Oc1ccccn1 (stereo not shown),mAb-19F2 (BALB/c mouse monoclonal antibody),"antibody binding, indirect competitive ELISA",,,> 1 µg/mL
O=C(NO)c1ccc(NC(=O)[C@@H](NC(=O)c2ccc(Cl)cc2)c2ccccc2)cc1,HDAC (HeLa nuclear extract),"enzyme activity, inhibitor",,,349 nM and 348 nM
O=C(/C=C/c1ccc2c(=O)n(CCO)cnc2c1)NO,histone deacetylase,"enzyme activity, inhibitor",HeLa nuclear extract,,91 ± 5 nM
[Zn+2],"GALR1, human","receptor activation, antagonist, NanoBiT mini-Go recruitment",HEK293T,"pH 7.3, room temperature, together with: galanin 1 µM",47200 nM
O=C(NO)c1ccc(NC(=O)[C@@H](NC(=O)c2cccc(Br)c2)c2ccccc2)cc1,HDAC (HeLa nuclear extract),"enzyme activity, inhibitor",,,13.7 ± 0.7 nM
O=C(/C=C/c1ccc2c(=O)n(Cc3cccc(F)c3)cnc2c1)NO,histone deacetylase,"enzyme activity, inhibitor",HeLa nuclear extract,,96 ± 1 nM
O=C(NO)c1ccc(NC(=O)[C@@H](NC(=O)c2ccccc2Cl)c2ccccc2)cc1,HDAC (HeLa nuclear extract),"enzyme activity, inhibitor",,,95.5 ± 4.6 nM
CC(C)C[C@H](NC(=O)[C@@H](NC(=O)N[C@H](C(=O)NCc1ccccc1)C(C)C)C(C)C)C(=O)[C@@]1(C)CO1,rabbit 26S proteasome beta2,trypsin-like activity,,"30 min, 37 °C, together with: Ac-RLR-AMC",> 10000 nM
O=C(NO)c1ccc(NC(=O)[C@@H](NS(=O)(=O)c2ccc(C(F)(F)F)cc2)c2ccccc2)cc1,HDAC (HeLa nuclear extract),"enzyme activity, inhibitor",,,85.5 ± 6.7 nM
O=C(/C=C/c1ccc2ncn(Cc3ccc(F)cc3)c(=O)c2c1)NO,histone deacetylase,"enzyme activity, inhibitor",HeLa nuclear extract,,253 ± 15 nM

# For quick reference, copied from above:
Molecule,target,assay,test system,setting,IC50
O=C(/C=C/c1ccc2ncn(Cc3cccc(F)c3)c(=O)c2c1)NO,histone deacetylase,"enzyme activity, inhibitor",HeLa nuclear extract,,588 ± 12 nM
CC(=O)C(=O)O,HDAC from MCF7 cells,inhibitor,,,69000 ± 12000 nM
O=C(/C=C/c1ccc2ncn(Cc3ccc(F)cc3)c(=O)c2c1)NO,histone deacetylase,"enzyme activity, inhibitor",HeLa nuclear extract,,253 ± 15 nM
O=C(/C=C/c1ccc2ncn(CCO)c(=O)c2c1)NO,histone deacetylase,"enzyme activity, inhibitor",HeLa nuclear extract,,974 ± 31 nM
O=C(NO)c1ccc(NC(=O)[C@@H](NC(=O)c2ccccc2Cl)c2ccccc2)cc1,HDAC (HeLa nuclear extract),"enzyme activity, inhibitor",,,95.5 ± 4.6 nM
